Results pooled from the literature.
Every numbered part comes from another study and shows a few of its results, in no order.
UniProt Q13873, sequence (whole entry, looked up): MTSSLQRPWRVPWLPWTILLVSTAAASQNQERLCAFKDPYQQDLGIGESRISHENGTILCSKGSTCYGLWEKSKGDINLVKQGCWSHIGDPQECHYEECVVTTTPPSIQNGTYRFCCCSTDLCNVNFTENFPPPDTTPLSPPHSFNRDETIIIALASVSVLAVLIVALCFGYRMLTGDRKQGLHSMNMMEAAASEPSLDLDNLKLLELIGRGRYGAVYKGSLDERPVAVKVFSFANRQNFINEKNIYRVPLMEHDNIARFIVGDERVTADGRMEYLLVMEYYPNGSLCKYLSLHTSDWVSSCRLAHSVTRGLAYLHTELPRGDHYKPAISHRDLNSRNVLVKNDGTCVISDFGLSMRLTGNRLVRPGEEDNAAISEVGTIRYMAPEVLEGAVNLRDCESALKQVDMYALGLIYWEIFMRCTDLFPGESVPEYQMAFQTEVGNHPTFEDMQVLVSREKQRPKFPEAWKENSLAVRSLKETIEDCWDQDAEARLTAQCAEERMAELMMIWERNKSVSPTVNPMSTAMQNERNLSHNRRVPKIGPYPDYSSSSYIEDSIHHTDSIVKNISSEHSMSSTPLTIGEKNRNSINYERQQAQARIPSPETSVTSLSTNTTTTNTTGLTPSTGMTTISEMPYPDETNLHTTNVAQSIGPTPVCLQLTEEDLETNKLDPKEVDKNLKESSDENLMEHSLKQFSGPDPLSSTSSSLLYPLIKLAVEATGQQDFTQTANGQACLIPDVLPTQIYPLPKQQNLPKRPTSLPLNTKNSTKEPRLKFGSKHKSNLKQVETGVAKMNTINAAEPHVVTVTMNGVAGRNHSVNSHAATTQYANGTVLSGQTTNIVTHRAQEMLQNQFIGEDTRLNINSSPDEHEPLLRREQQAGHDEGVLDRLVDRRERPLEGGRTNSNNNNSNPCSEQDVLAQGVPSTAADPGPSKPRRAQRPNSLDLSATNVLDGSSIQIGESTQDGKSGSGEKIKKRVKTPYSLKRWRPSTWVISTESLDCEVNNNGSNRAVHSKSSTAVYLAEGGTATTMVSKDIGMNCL
UniProt Q96D53, sequence (whole entry, looked up): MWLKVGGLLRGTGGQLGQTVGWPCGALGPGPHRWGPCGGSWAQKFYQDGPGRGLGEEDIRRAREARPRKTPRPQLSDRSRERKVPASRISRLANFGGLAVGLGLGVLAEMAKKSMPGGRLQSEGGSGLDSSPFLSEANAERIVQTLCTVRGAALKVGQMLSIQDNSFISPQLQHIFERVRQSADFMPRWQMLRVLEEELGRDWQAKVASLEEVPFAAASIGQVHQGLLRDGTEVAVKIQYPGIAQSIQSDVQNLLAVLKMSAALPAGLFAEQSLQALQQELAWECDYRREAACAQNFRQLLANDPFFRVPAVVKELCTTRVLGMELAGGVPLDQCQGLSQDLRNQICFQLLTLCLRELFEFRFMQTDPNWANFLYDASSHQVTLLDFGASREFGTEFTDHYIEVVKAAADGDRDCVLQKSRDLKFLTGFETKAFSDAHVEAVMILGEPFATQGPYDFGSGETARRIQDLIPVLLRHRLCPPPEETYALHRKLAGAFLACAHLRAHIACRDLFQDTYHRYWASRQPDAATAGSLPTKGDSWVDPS
UniProt P42336, sequence (whole entry, unmodified, looked up): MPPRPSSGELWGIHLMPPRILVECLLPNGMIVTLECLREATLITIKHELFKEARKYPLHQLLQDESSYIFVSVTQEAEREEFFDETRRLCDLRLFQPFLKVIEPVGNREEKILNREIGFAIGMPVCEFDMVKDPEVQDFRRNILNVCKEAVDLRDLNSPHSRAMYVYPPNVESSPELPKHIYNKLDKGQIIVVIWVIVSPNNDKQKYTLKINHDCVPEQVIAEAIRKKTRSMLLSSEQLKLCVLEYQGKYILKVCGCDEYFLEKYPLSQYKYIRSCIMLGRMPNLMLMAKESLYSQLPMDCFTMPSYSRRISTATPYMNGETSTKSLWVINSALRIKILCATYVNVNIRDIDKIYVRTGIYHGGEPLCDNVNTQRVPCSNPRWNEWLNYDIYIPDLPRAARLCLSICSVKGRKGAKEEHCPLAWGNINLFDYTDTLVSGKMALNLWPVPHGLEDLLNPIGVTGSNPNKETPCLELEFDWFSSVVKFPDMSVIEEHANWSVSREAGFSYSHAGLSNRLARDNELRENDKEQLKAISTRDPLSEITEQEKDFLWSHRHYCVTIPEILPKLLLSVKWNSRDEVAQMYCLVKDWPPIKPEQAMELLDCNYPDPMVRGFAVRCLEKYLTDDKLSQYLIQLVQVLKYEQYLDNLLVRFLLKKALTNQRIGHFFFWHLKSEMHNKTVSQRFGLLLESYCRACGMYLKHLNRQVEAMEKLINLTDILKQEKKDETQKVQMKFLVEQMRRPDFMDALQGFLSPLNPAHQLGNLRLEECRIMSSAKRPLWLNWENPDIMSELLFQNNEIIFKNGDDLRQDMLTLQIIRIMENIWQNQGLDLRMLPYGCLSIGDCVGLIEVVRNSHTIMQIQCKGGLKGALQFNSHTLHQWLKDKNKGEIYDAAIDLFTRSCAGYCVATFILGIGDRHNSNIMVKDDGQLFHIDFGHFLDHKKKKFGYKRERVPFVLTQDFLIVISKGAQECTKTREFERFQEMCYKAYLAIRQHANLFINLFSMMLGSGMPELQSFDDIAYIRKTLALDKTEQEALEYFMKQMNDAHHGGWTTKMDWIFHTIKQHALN
UniProt Q9NRP7, sequence (whole entry, looked up): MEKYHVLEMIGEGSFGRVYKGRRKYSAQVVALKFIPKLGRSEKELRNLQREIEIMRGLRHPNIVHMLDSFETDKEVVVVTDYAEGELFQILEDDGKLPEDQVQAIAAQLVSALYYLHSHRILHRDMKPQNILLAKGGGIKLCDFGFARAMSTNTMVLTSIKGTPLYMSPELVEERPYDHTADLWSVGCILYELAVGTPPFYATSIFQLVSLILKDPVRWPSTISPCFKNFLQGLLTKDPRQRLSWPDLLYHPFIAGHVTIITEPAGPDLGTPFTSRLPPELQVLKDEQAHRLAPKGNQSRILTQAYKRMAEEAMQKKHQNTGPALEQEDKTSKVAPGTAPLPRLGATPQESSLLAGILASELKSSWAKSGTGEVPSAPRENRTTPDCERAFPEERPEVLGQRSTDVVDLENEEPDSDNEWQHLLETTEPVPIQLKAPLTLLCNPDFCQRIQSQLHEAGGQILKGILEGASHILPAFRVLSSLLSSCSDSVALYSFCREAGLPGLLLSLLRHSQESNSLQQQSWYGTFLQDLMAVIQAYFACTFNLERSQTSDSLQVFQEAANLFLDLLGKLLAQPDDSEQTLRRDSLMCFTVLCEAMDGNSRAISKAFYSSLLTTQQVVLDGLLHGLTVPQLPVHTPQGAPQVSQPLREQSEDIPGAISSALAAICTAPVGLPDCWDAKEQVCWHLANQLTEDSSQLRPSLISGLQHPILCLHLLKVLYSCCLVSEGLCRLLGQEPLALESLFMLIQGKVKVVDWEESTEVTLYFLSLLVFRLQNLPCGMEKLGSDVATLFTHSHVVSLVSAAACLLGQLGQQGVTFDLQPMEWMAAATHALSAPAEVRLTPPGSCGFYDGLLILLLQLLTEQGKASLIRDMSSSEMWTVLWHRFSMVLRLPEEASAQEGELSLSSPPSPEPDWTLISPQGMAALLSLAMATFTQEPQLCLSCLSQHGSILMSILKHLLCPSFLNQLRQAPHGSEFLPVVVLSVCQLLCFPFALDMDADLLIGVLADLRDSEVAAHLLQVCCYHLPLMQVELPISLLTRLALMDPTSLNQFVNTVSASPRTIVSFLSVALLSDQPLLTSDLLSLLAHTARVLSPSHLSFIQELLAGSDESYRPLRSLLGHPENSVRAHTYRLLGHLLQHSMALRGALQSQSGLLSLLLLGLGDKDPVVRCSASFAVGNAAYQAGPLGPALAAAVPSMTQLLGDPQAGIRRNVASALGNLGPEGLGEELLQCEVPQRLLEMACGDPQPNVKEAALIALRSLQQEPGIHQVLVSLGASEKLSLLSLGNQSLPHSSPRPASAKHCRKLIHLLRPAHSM

Set 1
Cell line: A-375
Concentration: 100 µM
Time: 36 h
With OCc1ccccc1O[C@@H]1O[C@H](CO)[C@@H](O)[C@H](O)[C@H]1O the viability was 123%.
NS(=O)(=O)c1cc2c(cc1Cl)NCNS2(=O)=O gave a viability of 107%.
The viability of C[C@@](Cc1ccc(O)c(O)c1)(NN)C(=O)O is reported as 97.6%.
N=C(N)c1ccc2cc(OC(=O)c3ccc(N=C(N)N)cc3)ccc2c1 has a viability of 68.8%.
O=C(C1CCCCC1)N1CC(=O)N2CCc3ccccc3C2C1 (stereo not drawn) gave a viability of 92.5%.

Set 2
SMILES: Cc1cc(C)c(-n2ccn3nc(-c4cccnc4)cc23)cc1NC(=O)c1cc(C#N)cc(S(F)(F)(F)(F)F)c1
Read-out: cell-free assay
Method: competition with immobilised ligand
Concentration: 0.1 µM
It gave 89.4% for remaining binding (BMPR2 (Homo sapiens, UniProt Q13873)).
ROS1 (Homo sapiens, UniProt P08922) — remaining binding: 100%.
For PIK3CA (Homo sapiens, UniProt P42336, Q546K): remaining binding read 100%.
For PRKACB (Homo sapiens, UniProt P22694): remaining binding read 100%.
It gave 93.2% for remaining binding (COQ8B (Homo sapiens, UniProt Q96D53)).
It gave 80.8% for remaining binding (STK36 (Homo sapiens, UniProt Q9NRP7)).

Set 3
Target: Mitogen-activated protein kinase kinase kinase 8 (MAP3K8, Homo sapiens, UniProt P41279)
UniProt P41279, sequence (whole entry, looked up): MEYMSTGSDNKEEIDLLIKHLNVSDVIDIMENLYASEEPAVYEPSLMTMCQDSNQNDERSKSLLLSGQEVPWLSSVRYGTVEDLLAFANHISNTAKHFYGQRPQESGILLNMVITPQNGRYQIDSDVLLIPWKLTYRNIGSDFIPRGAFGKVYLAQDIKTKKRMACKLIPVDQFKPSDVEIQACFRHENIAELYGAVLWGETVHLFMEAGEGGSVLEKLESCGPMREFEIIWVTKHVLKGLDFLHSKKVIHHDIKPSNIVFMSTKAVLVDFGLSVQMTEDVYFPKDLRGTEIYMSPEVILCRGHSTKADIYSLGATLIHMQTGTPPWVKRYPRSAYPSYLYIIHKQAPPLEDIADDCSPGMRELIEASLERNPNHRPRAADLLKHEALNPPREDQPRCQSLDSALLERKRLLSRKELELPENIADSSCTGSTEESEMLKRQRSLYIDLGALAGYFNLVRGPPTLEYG
Read-out: enzyme activity
Mode: inhibitor
Concentration: 0.5 µM
Baseline: control
With Nc1ccc2ncnc(NCCc3ccc(Oc4ccccc4)cc3)c2c1 the remaining activity was 97.2%.
O=c1c2ccccc2[nH]c(=S)n1CCN1CCC(=C(c2ccc(F)cc2)c2ccc(F)cc2)CC1 gave a remaining activity of 100%.
COc1cc2ncnc(Nc3ccc(F)c(Cl)c3)c2cc1OCCCN1CCOCC1 has a remaining activity of 95.7%.
O=S(=O)(c1cccc2cnccc12)N1CCCNCC1 has a remaining activity of 91.8%.
Oc1ccc(-c2nc(-c3ccncc3)c(-c3ccc(F)cc3)[nH]2)cc1 gave a remaining activity of 96.6%.
With COc1cc2nccc(Oc3ccc(NC(=S)NC(=O)c4ccccc4C)cc3)c2cc1OC the remaining activity was 94.1%.
The remaining activity of Nc1[nH]nc2nc3ccccc3nc12 is reported as 81.3%.
The remaining activity of O=C(CCCc1ccc(-c2ccccc2F)cc1)Nc1ccc(O)cc1 is reported as 101%.
CN(C)c1ccc(C=C2C(=O)Nc3ccccc32)cc1 has a remaining activity of 99.6%.
With O=C(Nc1cccc(Nc2cc(Nc3cccc(C(F)(F)F)c3)ncn2)c1)C1CC1 the remaining activity was 98.4%.
For COc1ccc(CNC(=O)Nc2ncc([N+](=O)[O-])s2)cc1, the remaining activity was 96.2%.
Cn1c2ccccc2c2c3c(c4c5ccccc5n(CCC#N)c4c21)CNC3=O has a remaining activity of 111%.
For CNC(=O)c1cc(Oc2ccc(NC(=O)Nc3ccc(Cl)c(C(F)(F)F)c3)cc2)ccn1, the remaining activity was 93.6%.
With CCOC(=O)c1c(C)[nH]c(/C=C2\C(=O)Nc3ccccc32)c1C the remaining activity was 108%.
With Cc1nc(-c2ccccc2)c(-c2ccncc2)o1 the remaining activity was 89.9%.
With Nc1ncnc2n[nH]c(Nc3ccc(F)cc3)c12 the remaining activity was 99.7%.

Set 4
Species: human
Matrix: microsomes or S9
Concentration: 2 µM
Time: 0.5 h
The remaining compound of O=C(c1c2c(nc3ccccc13)C(=O)N(C1CCCCC1)C2)N1CCN(c2ccccn2)CC1 is reported as 66.3%.
COc1cc(=O)n(C)cc1C(=O)NCCCn1ncccc1=O gave a remaining compound of over 99%.
With COc1ccc(/C=C/c2nc(-c3cccnc3)no2)cc1OC the remaining compound was 42.6%.
COc1ccc(NC(=O)N2Cc3c(sc4c3CCCC4)-n3cccc3C2c2cccs2)c(OC)c1 (stereo not drawn) has a remaining compound of 0.217%.
The remaining compound of Cn1cnnc1-c1nn(C)c2c1CN(C(=O)c1n[nH]c3c1CCCCCC3)CC2 is reported as 41.3%.
For Cc1ccccc1-c1nc2ccccc2cc1Cn1nc(N2CCC(O)CC2)c2c(N)ncnc21, the remaining compound was 54.3%.
Cc1nc(NCC(O)CO)nc(C)c1CC(C)C (stereo not drawn) gave a remaining compound of over 99.9%.
With O=C1OCc2c(-c3ccccc3)sc(-c3ccccc3)c21 the remaining compound was 2.8%.
The remaining compound of Cc1cc(C)c(NS(=O)(=O)c2cnc(O)[nH]c2=O)c(C)c1 is reported as over 100%.

For quick reference, copied from above (set 3):
Oc1ccc(-c2nc(-c3ccncc3)c(-c3ccc(F)cc3)[nH]2)cc1 gave a remaining activity of 96.6%.
With Nc1ncnc2n[nH]c(Nc3ccc(F)cc3)c12 the remaining activity was 99.7%.
With O=C(Nc1cccc(Nc2cc(Nc3cccc(C(F)(F)F)c3)ncn2)c1)C1CC1 the remaining activity was 98.4%.
